Experimental data of several laboratories.
Numbered parts are unrelated; each lists some results of a single study. Changes are numbered by the printed parent chain.

Series 1
Target: Sal-like protein 4, full length isoform B (SALL4, Homo sapiens, UniProt Q9UJQ4-2, residues 1-616)
Method: universal PBM
Molecule type: double-stranded DNA, one strand shown
Matrix: in vitro
Tested at: not given
Setting: 8-mer, flanks averaged, mean of replicates
Reading: higher = stronger binding
Construct (chain): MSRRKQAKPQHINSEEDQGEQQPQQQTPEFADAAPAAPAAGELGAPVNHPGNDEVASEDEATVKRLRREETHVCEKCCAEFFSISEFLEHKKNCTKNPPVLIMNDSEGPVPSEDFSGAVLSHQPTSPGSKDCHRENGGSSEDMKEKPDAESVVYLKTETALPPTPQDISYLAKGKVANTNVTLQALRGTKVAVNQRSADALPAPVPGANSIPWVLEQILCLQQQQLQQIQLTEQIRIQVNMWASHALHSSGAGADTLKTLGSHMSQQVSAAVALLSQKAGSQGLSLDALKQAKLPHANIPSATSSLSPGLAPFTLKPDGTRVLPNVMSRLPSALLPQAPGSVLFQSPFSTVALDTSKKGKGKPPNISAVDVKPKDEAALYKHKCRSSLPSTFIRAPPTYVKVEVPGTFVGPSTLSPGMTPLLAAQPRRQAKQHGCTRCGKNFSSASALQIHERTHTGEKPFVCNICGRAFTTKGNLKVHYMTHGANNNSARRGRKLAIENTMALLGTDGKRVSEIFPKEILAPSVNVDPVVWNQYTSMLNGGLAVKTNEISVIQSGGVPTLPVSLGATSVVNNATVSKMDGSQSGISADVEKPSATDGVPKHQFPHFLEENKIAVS
| Sequence | E-score |
| --- | --- |
| AGAACCCA | -0.144 |
| TAACGGGA | 0.0898 |
| TCACCCCA | -0.00966 |
| GCTCACTA | 0.0117 |
| CCACATGA | 0.0275 |
| CCGCTGTA | -0.04 |
| AAGTGGGC | -0.102 |
| ACGGTTTC | -0.173 |
| ATGAGACG | -0.0579 |
| AGTACGTC | 0.0502 |
| TGTCCAAA | 0.132 |
| CCTTCACA | 0.123 |
| AGCGAGCT | -0.185 |
| CGATGATC | 0.0646 |
| ACCGTTCA | -0.0694 |
| CTACCAAC | 0.0381 |
| GCCGATGA | -0.23 |
| ACGCATGG | -0.137 |
| AGGGCTTC | -0.185 |
| CAATCGAA | -0.0885 |
| CGGTCCCA | -0.321 |
| GGAGGGAA | -0.242 |
| ATGGCCAG | 0.058 |
| ACTGGGCG | -0.24 |
| AGATAACA | 0.215 |

Series 2
Target: CCNA1, cyclin fold, Cln2 fusion (human)
Method: yeast growth competition, sequencing
Matrix: yeast
Setting: weak parent motif
Relative to: not given
Reading: higher = stronger binding
Starting sequence: ANKRD17 docking peptide (human); PSVRRQLFVTVVK; partner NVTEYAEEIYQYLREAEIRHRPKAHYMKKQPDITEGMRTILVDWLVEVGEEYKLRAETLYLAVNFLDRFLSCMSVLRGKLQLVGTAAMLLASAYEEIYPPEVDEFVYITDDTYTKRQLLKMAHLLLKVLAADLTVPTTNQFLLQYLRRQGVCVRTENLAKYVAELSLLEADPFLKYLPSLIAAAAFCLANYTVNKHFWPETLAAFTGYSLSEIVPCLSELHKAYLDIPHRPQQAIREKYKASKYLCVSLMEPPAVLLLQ
| Substitution | normalised enrichment score |
| --- | --- |
| K13A | 0.174 |
| R5K | 0.066 |
| R5K F8L | 1.61 |
| F8A | 0.355 |
| Q6A | 0.0447 |
| T10A | 0.798 |
| R5A L7A | 0.235 |
| P1A | 0.459 |
| R4A | 0.325 |
| S2A | 0.474 |

Series 3
Target: RNA binding protein fox-1 homolog 2, RRM domain, GST-SBP tag (RBFOX2, Homo sapiens, UniProt O43251-10, residues 100-194)
Method: RNA Bind-n-Seq
Molecule type: RNA
Matrix: in vitro
Tested at: 365 nM
Setting: natural RNA segment, single round, ends assumed
Relative to: no-protein control
Reading: higher = stronger binding
Constant ends, left off below: GGGAGUUCUACAGUCCGACGAUC … UGGAAUUCUCGGGUGCCAA
Construct (chain): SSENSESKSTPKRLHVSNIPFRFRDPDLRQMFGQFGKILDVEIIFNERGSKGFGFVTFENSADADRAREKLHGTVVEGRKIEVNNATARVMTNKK
| Sequence | RBNS enrichment (R) |
| --- | --- |
| UCCCCCUUUUUAAUUGAGAGGAUCGUUCGAAUGAGCCUCUGUGGCCUCUCCUUAGAGGCCUUCACAAGAAGCAUAGACACUGUCCCUGACGGUAAUUAGAAGAAGCAGAG | 0.409 |
| AGCUAGCAAGGCUUCUUCAGCUUAUUGACCAGCCAGGGUUUCUUCUUGCCUACUCCGGUGCCUCUACUUGACUGGCCAAUCAGCCCUUGAGGGGCAGGUUCCCCCAGGUG | 0.245 |
| UCCUUAAUUCUGCUAGAGUUAACCUUGAGUUCAGAGCAGUAUUAAAUGCGUGCACUUUCAGGUCAGUACUGGGGACCAAGUACCCUCUGGUCUUUUGUGAAUGGAUGGUU | 0.74 |
| CUUACCUCCAAUCCAGUUAGAGCAAUAACCACUUUUUAAAUGUAAAAUAAAGACAAAUGAAAAGGCACAUCCUUGUCUUUUGGUAAAUGCCCAAACGUUGCCCUCUUUUU | 0.52 |
| CUGAGUUGAAUUUCUGGGAGGAUGACGCAGAUGUCUGCUGCAGAGCUGGGCUGAGAGUUCUGCAGUCUAGCUCUGACUUAGGUCAGGGGCCUGUUGGUCUCUCAUUGGAC | 0.32 |
| GCCUGGCACUGGGUAAAUGUAUAGUUAAAGUAGUAGCCACAACGUUGUUCUUAUUCCUAGGUCAGGGUAGUACAAAUUACGGAAAGAGCCAGCGACGUGGUGGUCAUCAG | 0.498 |
| GUACUAAACAGAUGGGGGUUCACUCUAGGUCAUAAAUACAAUUACCUACUAAGUAGCAAGAAUGCCUCAGCAAUCCCCAAGCCUUCCAGUGCCUCUGGGGGCUUCCUGAU | 0.362 |
| UAAAAACAUUACAUUUAUUUAUCCAGAAAACUGUGAUUUUAGGAUUACCUAACAUUGCUGGUAAAUAUUUUCAACCUUUGUCCCCACAAAUUGGUAUUUUUAAAGAUGUA | 0.521 |

Series 4
Target: RING finger protein unkempt homolog, zinc fingers 1-6, GST-SBP tag (UNK, Homo sapiens, UniProt Q9C0B0, residues 30-357)
Method: RNA Bind-n-Seq
Molecule type: RNA
Matrix: in vitro
Tested at: not given
Setting: RNA with constant flanks, human and mouse sites, ends assumed
Relative to: input RNA pool
Reading: higher = stronger binding
Constant ends, left off below: GGGAGUUCUACAGUCCGACGAUC … CAACAGAGGAUUGAGCAUCA
Construct (chain): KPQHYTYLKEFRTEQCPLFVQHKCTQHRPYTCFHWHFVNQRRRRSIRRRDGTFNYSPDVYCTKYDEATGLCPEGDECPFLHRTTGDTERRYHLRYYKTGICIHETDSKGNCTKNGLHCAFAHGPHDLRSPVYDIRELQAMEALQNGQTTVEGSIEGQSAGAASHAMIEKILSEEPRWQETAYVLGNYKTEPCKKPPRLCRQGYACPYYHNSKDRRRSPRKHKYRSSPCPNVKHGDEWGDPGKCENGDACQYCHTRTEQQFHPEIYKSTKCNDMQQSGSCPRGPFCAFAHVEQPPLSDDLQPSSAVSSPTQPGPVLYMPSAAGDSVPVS
| Sequence | bound/input enrichment [ratio] |
| --- | --- |
| GUUUUUAGCUGUCACAGUGCUGAGAGUCUUGAUAGUGUCAGUGUGUCCACACCUGAUCCUUUACCCGAAAAAAUAAGAGGAUAUCAAGAGGCUGAAAGAAUAUUUUCAGAAGCAUAGACU | 0.3 |
| GGUGGAGAUGGAGAUGAUAUGGAAAUAUUCAUGGAGGAGAUGAGAGAAAUCAGAAGAAAACUUAGGGAGCUGCAGUUGAGGAAUUGUCUGCGUAUCCUUAUGGGGGAGCUCUCUAAUCAC | 0.414 |
| GAGCCAAGUCGGCAGUUUGUAAAGGACUCCAUUCGGCUGGUUAAAAGAUGCACUAAACCUGAUAGAAAAGAAUUCCAGAAGAUUGCCAUGGCAACAGCAAUAGGAUUUGCUAUAAUGGGA | 0.461 |
| AGUUUCAGUUCAAACUUGAGCCCCCAAGAGUGGGUCCAGCUGUGGUUCACAGUUACCCGUUUUAGAAGUGAAGUUUCAUUUUCUGGGUGCCUUUGAAAACUGACUUCAUGUGUUUGUGAC | 0.229 |
| AAGUUUCCAUUCUGUCAAGUAAGUACAGAAGAAGGCAAAGGGAAGAUCUGGUGGAAUCUUCGAAAAACCUGCUACAGUAUUGUUGAGCACAACUGGUUUGAGACUUUCAUUGUGUUCAUG | 0.112 |
| GAGGAGCGGAUGCUCUCGGCUGUGUCCCAGCAGGUGCAGUGCAUACAGGAAGCACUGCGUGAACAUUCCAACCCCAACUACGACAAGACCUCUGCCCCCAUUACUUGUGAGCUGCUGAAC | 0.46 |
| AGUGCUGCAGCAGCUCCCAGUCCAGUGCUAGGAAACAUUCCCCCAGGAGAUGGCAUGCCAGUAGGUCCUGUACCACCAGGGUUCUUUCAGGCACUUGGAGGUGUCCCAGGAAGUCAGCCA | 0.076 |
| AGCCGCCGCAGCCGCACCCCCAGCCGCCGCAGCCGCACCCCCAGCCGCCGCAGCCGCACCCCCAGCCGCCGCAGCCGCACCCCCAGCCGCCGGAGCCGCACCCCUAGCCGUCGGAGCCGC | 1.32 |
